# Assay results gathered from unrelated publications.
# “And” joins repeats or separate records; there may be more than shown. ± gives the spread as reported.
# TOP2A: DNA topoisomerase 2-alpha (TOP2A, Homo sapiens, UniProt P11388)
# UniProt P11388, sequence (whole entry, looked up): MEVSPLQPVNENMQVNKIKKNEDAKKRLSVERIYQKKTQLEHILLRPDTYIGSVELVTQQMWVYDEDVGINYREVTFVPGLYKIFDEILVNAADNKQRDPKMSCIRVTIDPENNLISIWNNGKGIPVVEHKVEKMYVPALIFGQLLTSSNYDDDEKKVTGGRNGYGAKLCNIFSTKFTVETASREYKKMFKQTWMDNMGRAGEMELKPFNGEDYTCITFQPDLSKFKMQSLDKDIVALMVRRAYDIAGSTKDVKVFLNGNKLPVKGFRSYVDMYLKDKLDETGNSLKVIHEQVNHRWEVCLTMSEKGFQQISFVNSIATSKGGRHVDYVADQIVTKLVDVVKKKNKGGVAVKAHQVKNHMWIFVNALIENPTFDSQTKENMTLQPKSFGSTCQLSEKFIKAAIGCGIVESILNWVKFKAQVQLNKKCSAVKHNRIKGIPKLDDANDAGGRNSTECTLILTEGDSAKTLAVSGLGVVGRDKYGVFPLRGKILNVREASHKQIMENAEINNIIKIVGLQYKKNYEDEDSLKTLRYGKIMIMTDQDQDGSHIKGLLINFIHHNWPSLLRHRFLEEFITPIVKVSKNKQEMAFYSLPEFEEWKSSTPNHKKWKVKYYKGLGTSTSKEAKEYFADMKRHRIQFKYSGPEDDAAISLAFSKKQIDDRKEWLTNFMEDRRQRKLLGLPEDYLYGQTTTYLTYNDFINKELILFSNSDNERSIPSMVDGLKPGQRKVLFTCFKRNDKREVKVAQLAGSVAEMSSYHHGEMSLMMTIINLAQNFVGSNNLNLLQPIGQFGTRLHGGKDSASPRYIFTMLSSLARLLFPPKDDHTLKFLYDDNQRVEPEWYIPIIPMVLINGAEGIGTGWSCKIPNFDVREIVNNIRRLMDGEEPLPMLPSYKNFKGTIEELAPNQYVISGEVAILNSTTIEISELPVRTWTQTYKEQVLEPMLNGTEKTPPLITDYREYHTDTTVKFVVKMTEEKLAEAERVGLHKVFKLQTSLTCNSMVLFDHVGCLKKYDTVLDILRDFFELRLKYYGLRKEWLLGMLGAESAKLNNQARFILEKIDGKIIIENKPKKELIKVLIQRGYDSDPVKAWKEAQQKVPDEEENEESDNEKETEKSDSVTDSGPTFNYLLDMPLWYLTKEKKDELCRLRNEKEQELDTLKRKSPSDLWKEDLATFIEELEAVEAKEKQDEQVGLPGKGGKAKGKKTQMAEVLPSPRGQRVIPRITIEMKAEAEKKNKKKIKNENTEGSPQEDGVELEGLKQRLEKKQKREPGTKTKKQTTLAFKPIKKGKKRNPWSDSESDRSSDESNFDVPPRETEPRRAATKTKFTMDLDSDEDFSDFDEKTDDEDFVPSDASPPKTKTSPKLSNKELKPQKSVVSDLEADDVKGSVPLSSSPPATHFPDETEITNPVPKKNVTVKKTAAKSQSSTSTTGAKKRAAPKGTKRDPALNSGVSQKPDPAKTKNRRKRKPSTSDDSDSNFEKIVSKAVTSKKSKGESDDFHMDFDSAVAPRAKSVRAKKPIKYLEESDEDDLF
# DNMT3A PWWP domain: DNA (cytosine-5)-methyltransferase 3A, PWWP domain (DNMT3A, Homo sapiens, UniProt Q9Y6K1)
# BEST2: Bestrophin-2a (BEST2, Homo sapiens, UniProt Q8NFU1)
# UniProt Q8NFU1, sequence (whole entry, looked up): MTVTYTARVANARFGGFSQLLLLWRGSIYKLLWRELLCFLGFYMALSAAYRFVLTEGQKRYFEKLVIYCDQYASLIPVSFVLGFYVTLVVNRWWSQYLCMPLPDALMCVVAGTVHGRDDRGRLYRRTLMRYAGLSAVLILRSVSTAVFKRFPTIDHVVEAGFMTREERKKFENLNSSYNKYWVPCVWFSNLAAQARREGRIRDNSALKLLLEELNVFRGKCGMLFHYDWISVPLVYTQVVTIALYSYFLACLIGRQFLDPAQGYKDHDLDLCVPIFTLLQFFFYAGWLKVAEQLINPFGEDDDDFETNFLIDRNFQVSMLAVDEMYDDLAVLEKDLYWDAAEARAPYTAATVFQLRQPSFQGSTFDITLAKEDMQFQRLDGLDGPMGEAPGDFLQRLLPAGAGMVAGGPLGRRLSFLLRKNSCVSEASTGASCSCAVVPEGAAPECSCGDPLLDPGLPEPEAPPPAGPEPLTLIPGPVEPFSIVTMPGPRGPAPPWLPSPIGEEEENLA
# T1: DNA junction; chain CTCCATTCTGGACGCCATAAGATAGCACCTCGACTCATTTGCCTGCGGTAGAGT; chain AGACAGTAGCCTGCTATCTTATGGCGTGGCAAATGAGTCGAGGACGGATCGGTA; chain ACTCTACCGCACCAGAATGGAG; chain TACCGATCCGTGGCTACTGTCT
# UniProt Q16774, sequence (whole entry, unmodified, looked up): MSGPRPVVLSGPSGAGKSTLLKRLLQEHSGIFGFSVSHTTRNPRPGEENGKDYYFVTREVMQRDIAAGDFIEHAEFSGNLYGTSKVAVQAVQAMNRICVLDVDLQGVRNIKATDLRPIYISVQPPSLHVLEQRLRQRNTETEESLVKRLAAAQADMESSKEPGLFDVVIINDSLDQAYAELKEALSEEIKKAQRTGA
# UniProt Q8IVV7, sequence (whole entry, looked up): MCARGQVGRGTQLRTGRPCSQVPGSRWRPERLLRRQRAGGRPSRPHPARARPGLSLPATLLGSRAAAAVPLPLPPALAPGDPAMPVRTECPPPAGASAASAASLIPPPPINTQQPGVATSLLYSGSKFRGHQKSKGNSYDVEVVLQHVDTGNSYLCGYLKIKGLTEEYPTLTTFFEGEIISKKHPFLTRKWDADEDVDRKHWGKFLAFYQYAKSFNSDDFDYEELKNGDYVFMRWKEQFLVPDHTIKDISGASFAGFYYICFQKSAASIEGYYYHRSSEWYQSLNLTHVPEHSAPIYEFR
# UniProt Q9UM73, sequence (whole entry, looked up): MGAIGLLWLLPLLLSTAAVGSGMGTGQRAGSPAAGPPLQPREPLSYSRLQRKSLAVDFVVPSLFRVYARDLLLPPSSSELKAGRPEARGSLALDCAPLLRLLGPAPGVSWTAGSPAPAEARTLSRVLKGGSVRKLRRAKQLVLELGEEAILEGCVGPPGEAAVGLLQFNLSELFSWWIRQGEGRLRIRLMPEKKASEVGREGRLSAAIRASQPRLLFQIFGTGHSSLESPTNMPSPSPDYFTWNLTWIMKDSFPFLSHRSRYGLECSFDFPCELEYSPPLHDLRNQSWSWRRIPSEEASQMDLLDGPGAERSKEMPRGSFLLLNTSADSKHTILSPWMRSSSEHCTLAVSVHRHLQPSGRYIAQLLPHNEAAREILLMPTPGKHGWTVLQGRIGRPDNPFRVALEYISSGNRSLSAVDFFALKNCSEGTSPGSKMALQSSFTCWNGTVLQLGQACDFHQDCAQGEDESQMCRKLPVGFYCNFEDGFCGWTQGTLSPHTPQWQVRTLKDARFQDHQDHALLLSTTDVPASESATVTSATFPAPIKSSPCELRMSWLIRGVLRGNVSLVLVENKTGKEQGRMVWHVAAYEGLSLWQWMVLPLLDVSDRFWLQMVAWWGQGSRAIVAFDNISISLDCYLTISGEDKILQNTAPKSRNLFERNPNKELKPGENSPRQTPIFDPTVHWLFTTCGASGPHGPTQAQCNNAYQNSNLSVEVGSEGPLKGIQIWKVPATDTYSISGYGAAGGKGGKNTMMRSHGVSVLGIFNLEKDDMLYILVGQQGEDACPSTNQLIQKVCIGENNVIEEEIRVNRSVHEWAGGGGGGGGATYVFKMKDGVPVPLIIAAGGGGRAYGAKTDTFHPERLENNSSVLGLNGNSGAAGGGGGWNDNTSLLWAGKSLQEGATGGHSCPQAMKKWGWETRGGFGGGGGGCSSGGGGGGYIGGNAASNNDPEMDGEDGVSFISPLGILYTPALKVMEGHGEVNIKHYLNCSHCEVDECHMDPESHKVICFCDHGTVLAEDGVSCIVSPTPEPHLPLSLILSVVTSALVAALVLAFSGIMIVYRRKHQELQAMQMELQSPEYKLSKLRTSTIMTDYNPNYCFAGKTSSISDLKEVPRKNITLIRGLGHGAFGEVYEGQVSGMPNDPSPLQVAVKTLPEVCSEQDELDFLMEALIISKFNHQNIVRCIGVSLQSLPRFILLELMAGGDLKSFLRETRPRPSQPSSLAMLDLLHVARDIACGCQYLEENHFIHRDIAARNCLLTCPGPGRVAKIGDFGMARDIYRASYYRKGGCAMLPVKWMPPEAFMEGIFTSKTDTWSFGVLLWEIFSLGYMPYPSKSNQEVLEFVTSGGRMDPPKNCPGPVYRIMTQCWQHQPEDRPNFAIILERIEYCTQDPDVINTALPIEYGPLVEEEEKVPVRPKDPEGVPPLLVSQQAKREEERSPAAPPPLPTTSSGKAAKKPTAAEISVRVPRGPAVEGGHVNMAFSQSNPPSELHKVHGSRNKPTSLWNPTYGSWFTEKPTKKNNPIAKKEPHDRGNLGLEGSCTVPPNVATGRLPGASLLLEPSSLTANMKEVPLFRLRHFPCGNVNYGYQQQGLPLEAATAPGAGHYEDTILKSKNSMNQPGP
# UniProt Q9EP73, sequence (whole entry, looked up): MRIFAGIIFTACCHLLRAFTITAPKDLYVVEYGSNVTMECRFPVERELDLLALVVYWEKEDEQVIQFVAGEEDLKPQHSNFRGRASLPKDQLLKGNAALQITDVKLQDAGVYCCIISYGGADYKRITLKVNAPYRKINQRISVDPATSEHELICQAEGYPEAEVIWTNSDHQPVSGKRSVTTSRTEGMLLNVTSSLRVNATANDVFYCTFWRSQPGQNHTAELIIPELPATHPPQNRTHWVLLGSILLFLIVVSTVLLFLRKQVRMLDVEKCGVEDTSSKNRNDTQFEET
# UniProt P31941, sequence (whole entry, looked up): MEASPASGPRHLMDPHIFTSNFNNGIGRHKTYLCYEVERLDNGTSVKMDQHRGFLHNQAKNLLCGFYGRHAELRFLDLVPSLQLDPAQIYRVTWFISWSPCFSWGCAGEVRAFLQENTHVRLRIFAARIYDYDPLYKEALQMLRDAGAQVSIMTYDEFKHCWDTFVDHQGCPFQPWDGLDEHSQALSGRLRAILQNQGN
# UniProt P51575, sequence (whole entry, unmodified, looked up): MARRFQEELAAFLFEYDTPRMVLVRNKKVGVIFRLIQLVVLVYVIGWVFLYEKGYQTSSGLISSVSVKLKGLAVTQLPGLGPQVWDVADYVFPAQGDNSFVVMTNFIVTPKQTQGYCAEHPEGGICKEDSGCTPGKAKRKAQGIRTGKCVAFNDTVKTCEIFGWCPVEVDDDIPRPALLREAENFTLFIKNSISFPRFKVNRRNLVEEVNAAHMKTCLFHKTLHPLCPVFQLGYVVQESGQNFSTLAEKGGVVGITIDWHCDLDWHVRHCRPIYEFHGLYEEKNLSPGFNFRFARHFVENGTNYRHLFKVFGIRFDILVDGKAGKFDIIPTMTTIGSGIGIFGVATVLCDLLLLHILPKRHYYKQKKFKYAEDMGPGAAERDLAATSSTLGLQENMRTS
SMILES,tested on,assay,test system,setting,scale,endpoint,value
CN1CCN(c2cc(-c3ccncc3)c(-c3ccc4ccccc4c3)nn2)CC1,"CXCR1 (Homo sapiens, UniProt P25024)","agonist, FLIPR",,12.5 µM,,activation,-1.6%
OC[C@H]1OC(O)[C@H](O)[C@@H](O)[C@@H]1O (stereo partly drawn),"Hexokinase-3 (HK3, Homo sapiens, UniProt P52790, E254A/R267A)",substrate inhibition,,"mutant E254A/R267A, partial substrate inhibition model, with: ATP 20 mM",,V∞/Vmax ratio (b),0.3 ± 0.04
Cc1cc(/N=N/c2ccc(S(=O)(=O)Nc3ccccn3)cc2)c(N)cc1O,HBL-1,,,"0.1 µM, 120 h",,viability,125%
O=C(COP(=O)(O)O)[C@@H](O)[C@H](O)[C@H](O)COP(=O)(O)O,"Coatomer subunit alpha (Homo sapiens, UniProt P53621)","thermal proteome profiling, measured: COPA",HepG2 cell lysate,"concentration not given, 57 over 37 °C, mean",reference: compound over control,thermal stability ratio,0.545
Cc1c(COc2ccc(CN3CCCCC3C(=O)NCCCNC(=O)CN(C)CCCC34CCC(c5ccccc53)c3ccccc34)cc2Br)cccc1-c1ccccc1 (stereo not drawn),"CD274 (Homo sapiens, UniProt Q9NZQ7)","degrader, western blot",HL-60,1 µM,,degradation,10.3 ± 3.5%
COCC(=O)N1CCC[C@H](C(=O)NCc2nc(-c3ccccc3)cs2)C1,"uncharacterized protein (Plasmodium falciparum, UniProt A0A5K1K7U1+Q8I261+Q8IJT1)","enzyme activity, inhibitor",,"without WLW-vs, with: Suc-LLVY-AMC",,maximum inhibition,30%
O=C1CCC(N2C(=O)C=C(Nc3cccc(C4(NCCc5ccc(Cl)c(C(F)(F)F)c5)CCC4)c3)C2=O)C(=O)N1 (stereo not drawn),"Cereblon/Ikaros (Homo sapiens, UniProt Q13422+Q96SW2)","protein degradation, degrader, HiBiT luminescence",Jurkat,,,Dmax,85%
C=CC[C@@H]1/C=C(\C)C[C@H](C)C[C@H](OC)[C@H]2O[C@@](O)(C(=O)C(=O)N3CCCC[C@H]3C(=O)O[C@H](/C(C)=C/[C@@H]3CC[C@@H](O)[C@H](OC)C3)[C@H](C)[C@@H](O)CC1=O)[C@H](C)C[C@@H]2OC,,,rat,"intraperitoneal, 0.5 mg/kg/day, day 28",reference: vehicle,plasma renin concentration,increased
Cc1nc(CSc2nc(SCc3cc(F)cc(C(F)(F)F)c3)nc(=O)[nH]2)cs1,TOP2A,decatenation,,"31.25 µM, replicate 1",,decatenated DNA,94.5%
CC1(C)CC2(C)OC(=O)NC2(C)c2ccccc21 (stereo not drawn),DNMT3A PWWP domain,"binding, affinity selection mass spectrometry",,,reference: other proteins in batch,log fold enrichment,-0.161
CN[C@@H](C)C(=O)N[C@H]1CN(C(=O)CC(C)C)CC[C@H]2CC[C@@H](C(=O)NC(c3ccccc3)c3ccccc3)N2C1=O,"BIRC2 (Homo sapiens, UniProt Q13490)","protein degradation, western blot","mouse xenograft, tumour","oral, 100 mg/kg",,protein level,decreased
O=C(O)c1ccc(Nc2ncc3c(n2)-c2ccc(Cl)cc2C(c2c(F)cccc2F)=NC3)cc1,human SRPK1(h),kinase activity,,1 µM,,remaining activity,105%
CCCOC(=O)C1CCN(C(=O)c2ccc(N(C)Cc3cnc4nc(N)nc(N)c4n3)cc2)CC1,"Pteridine reductase 1 (Leishmania major, UniProt Q01782)",,,hDHFR weight 10,"reference: LmPTR1, LmDHFR over hDHFR, 1.0 selective, 0.0 non-selective",partition index,0.89
CO[C@@H]1CN(C)C(=O)c2cc(NC(=O)c3ccc(Oc4ccccc4)cc3)ccc2OC[C@@H](C)NC[C@H]1C,"IDE (Homo sapiens, UniProt P14735)","enzyme activity, inhibitor, fluorogenic kinetic",,with: Mca-RPPGFSAFK(Dnp)-OH substrate,,EC50,2.5 µM
CCCCC[C@H](O)/C=C/[C@H]1[C@H](O)CC(=O)[C@@H]1C/C=C\CCCC(=O)O,"PTGER1 (Homo sapiens, UniProt P34995, F334A/P39A)","IP1 accumulation, agonist",AD293,1 h,reference: wild type receptor,Emax,74.7 ± 4.49%
CC(C)(Oc1ccc(CCNC(=O)c2ccc(Cl)cc2)cc1)C(=O)O,"PPARG (Homo sapiens, UniProt P37231)","reporter gene, agonist, β-lactamase reporter",HEK293-H cells,nominal concentration,reference: cytotoxicity IC10 over EC10,specificity ratio,172
CC(=O)N[C@H](C(=O)N1C[C@H](O)C[C@H]1C(=O)NCc1ccc(-c2scnc2C)cc1)C(C)(C)SCCCCCCNC(=O)C[C@@H]1N=C(c2ccc(Cl)cc2)c2c(sc(C)c2C)-n2c(C)nnc21,"Bromodomain-containing protein 4, BD2 (BRD4, Homo sapiens, UniProt O60885)",ITC,,"25 °C, binary",,ΔH,-9.8 ± 0.9 kcal/mol
c1ccc(CCCCCOCCc2ccc3occc3c2)cc1,"ATP2A2 (Sus scrofa, UniProt P11607)","ATPase Vmax increase, activator",pig microsomes,0.1 to 50 µM,reference: vehicle,Emax,≤ 57%
O=C(OC[C@H]1O[C@@H](OC(=O)c2cc(OS(=O)(=O)[O-])c(O)c(OS(=O)(=O)[O-])c2)[C@H](OC(=O)c2cc(OS(=O)(=O)[O-])c(O)c(OS(=O)(=O)[O-])c2)[C@@H](OC(=O)c2cc(OS(=O)(=O)[O-])c(O)c(OS(=O)(=O)[O-])c2)[C@@H]1OC(=O)c1cc(OS(=O)(=O)[O-])c(O)c(OS(=O)(=O)[O-])c1)c1cc(OS(=O)(=O)[O-])c(O)c(OS(=O)(=O)[O-])c1.[Na+].[Na+].[Na+].[Na+].[Na+].[Na+].[Na+].[Na+].[Na+].[Na+],"Neutrophil elastase (ELANE, Homo sapiens, UniProt P08246)","elastin cleavage, inhibitor, elastin-Congo red",,concentration not given,,duration of full inhibition,> 48 h
Cc1c(COc2ccc(CN3CCCCC3C(=O)O)cc2Br)cccc1-c1ccccc1 (stereo not drawn),"Cd274 (Mus musculus, UniProt Q9EP73)",western blot,"mouse B16-F10 tumour, tumour",dose not given,reference: control,protein level,70% and 121% and 94%
N[C@@H](CCC(=O)O)C(=O)O,BEST2,whole-cell patch clamp,HEK293 transfected,"concentration not given, compound external permeant anion, at 100 mV",,current density,57 pA/pF and 38.7 pA/pF and 56.6 pA/pF and 51.3 pA/pF and 41.7 pA/pF
Cn1ncc(Cl)c1-c1cc(C(=O)N[C@H](CN)Cc2ccc(F)c(F)c2)oc1Cl,"PKN1 (Homo sapiens, UniProt Q16512)",inhibitor,,,,Hill slope,-0.96
C=CC(=O)N1CCC[C@@H](n2nc(-c3ccc(Oc4ccccc4)cc3)c3c(N)ncnc32)C1,"MAP4K3 (Homo sapiens, UniProt Q8IVH8)",,,1 µM,,remaining activity,108%
[Zn+2],"Otop1 (Mus musculus, UniProt Q80VM9)","acid-evoked current, inhibitor, whole-cell patch-clamp",HEK293T,"10 mM, pH 5.5, unit not given",reference: current before compound,remaining current,0.0856
CCN(CCO)CCCC(C)Nc1ccnc2cc(Cl)ccc12 (stereo not drawn),"SCN5A (Homo sapiens, UniProt Q14524)",sodium current,,30 µM,,activation V1/2,-48.9 ± 3.6 mV
CC[n+]1c(-c2ccccc2)c2cc(N)ccc2c2ccc(N)cc21,"T1, DNA junction",fluorescence enhancement,,"20 °C, Mg2+ 12.5 mM, ethidium displacement",,binding,binds
CCC1(O)CCCN(C(=O)c2ccc(-c3ccc(F)c(NC(=O)CCl)c3)cc2)C1 (stereo not drawn),"DNA dC->dU-editing enzyme APOBEC-3A (Homo sapiens, UniProt P31941)","covalent adduct, intact protein MS",,"1 h, 20-fold excess, 500 µM",,unmodified protein,0%
N#C/C(=C\c1ccc(O)c(O)c1)C(N)=S,"TGM2 (Homo sapiens, UniProt P21980)","enzyme activity, inhibitor",,"concentration not given, reversibility, without calcium",,inhibition after dialysis,> 90%
c1coc(-c2n[nH]cc2-c2ccnc3ccccc23)c1,"Actin-regulating kinase PRK1 (PRK1, Candida albicans, UniProt Q5A961)","kinase binding, MIB/MS competition",Candida albicans lysate,10 µM,"reference: DMSO, negative = stronger binding",log2 fold change,-0.01
O=c1nc(SCc2cc(F)cc(C(F)(F)F)c2)nc(SCc2ccc3ncsc3c2)[nH]1,TOP2A,decatenation,,7.8 µM,,mean decatenated DNA,100%
[O-][S+]1CCCCS1 (stereo not drawn),"SOD1 (Homo sapiens, UniProt P00441, G94A)",LC-MS,brain homogenate,"1000 µM, 1 h, 37 °C",,SOD1 dimer fraction,100%
O=C(O)c1ccc(O)cc1,BEST2,whole-cell patch clamp,HEK293 transiently expressing channel,"concentration not given, membrane potential 80 mV",,current density,96.2 pA/pF and 165 pA/pF and 221 pA/pF and 113 pA/pF and 131 pA/pF and 199 pA/pF
O=c1nc(SCc2cc(F)cc(C(F)(F)F)c2)nc(SCc2cccc(C(F)(F)F)c2)[nH]1,TOP2A,decatenation,,"31.25 µM, replicate 2",,decatenated DNA,20.1%
CC(=O)Nc1ccc(O)cc1,"BRD4 (Homo sapiens, UniProt O60885)","19F NMR, measured: tyrosine 97",,746 µM,reference: free protein,chemical shift change,-0.22 ppm
Cc1nc(CSc2nc(SCc3ccc(C(F)(F)F)cc3)nc(=O)[nH]2)cs1,TOP2A,decatenation,,"15.6 µM, replicate 2",,decatenated DNA,88.9%
CC(=C/C(=O)O)/C=C/C=C(\C)C1C=C2C(C)(C)CCCC2(C)O1 (stereo not drawn),"Rhodopsin (RHO, Homo sapiens, UniProt P08100, E181K)","immunostaining, measured: opsin",COS-7 transfected,"10.00 µM, unit not given",reference: surface over total stained cells,plasma membrane localization,0.82
COc1cc(N2CCC(N3CCN(C)CC3)CC2)ccc1Nc1ncc(Cl)c(Nc2ccccc2P(C)(C)=O)n1,"GID4/ALK (Homo sapiens, UniProt Q8IVV7+Q9UM73)",ternary complex formation,HEK293T,"250 nM, 6 h",reference: normalised ratio,NanoBRET ratio,1.11 and 0.978 and 0.907
Cc1n[nH]c2ccc(-c3cc(OC[C@@H](N)Cc4ccccc4)cnc3-c3ccoc3)cc12,"Mitogen-activated protein kinase MKC1 (MKC1, Candida albicans, UniProt P43068)","kinase binding, competitor, MIB/MS competition, measured: MKC1",Candida albicans cell lysate,1 µM,reference: DMSO,log2 fold change,0.0129
NCCCCC(=O)O,"SLC6A6 (Homo sapiens, UniProt P31641, Y138A)","binding, microscale thermophoresis",,"977 nM, room temperature, with: 50 nM labelled protein",higher = more binding,normalised MST signal,-0.017
Nc1nc2c(ncn2[C@@H]2O[C@H](COP(=O)(O)O)[C@@H](O)[C@H]2O)c(=O)[nH]1,"GUK1 (Homo sapiens, UniProt Q16774, S37A)","enzyme activity, NADH-coupled",,500 µM,,reaction rate,4.23 s⁻¹ and 1.34 s⁻¹ and 3.96 s⁻¹
Nc1ncnc2c1ncn2[C@@H]1O[C@H](COP(=O)(O)CP(=O)(O)OP(=O)(O)O)[C@@H](O)[C@H]1O,"P2X purinoceptor 1 (P2RX1, Homo sapiens, UniProt P51575, K215A)",saturation binding,HEK293,130 nM,,specific binding,5250 CCPM and 4290 CCPM
O=C1N[C@H](c2cncc(C#Cc3ccccc3)c2)[C@@H](c2ccccc2Cl)O1,"Metabotropic glutamate receptor 5 (Mus musculus, UniProt Q3UVX5)","PAM-induced seizures, antagonist",mouse,Racine scale,,ED50,1.5 ± 0.8 mg/kg
Oc1c(Br)cc(Oc2ccc(Br)cc2Br)cc1Br,"SULT1E1 (Homo sapiens, UniProt P49888)","sulfonation, substrate",,,,Vmax/Km,957 µL/min/mg
Cc1ccc(C(=O)N2c3ccc(F)cc3[C@@H](Nc3ccccc3)C[C@H]2C)cn1,"Ecdysone receptor (Aedes albopictus, UniProt Q9U3Y4)","ligand binding, inhibitor",intact cells,with: [3H]ponasterone A,direction not given,pIC50 Z-score,-0.68
Cc1ccccc1C1CC(=O)c2c(C)nc(N)nc2C1 (stereo not drawn),DNMT3A PWWP domain,"binding, affinity selection mass spectrometry",,,reference: other proteins in batch,fold enrichment,0.895

# Repeated from above:
SMILES,tested on,assay,test system,setting,scale,endpoint,value
CCN(CCO)CCCC(C)Nc1ccnc2cc(Cl)ccc12 (stereo not drawn),"SCN5A (Homo sapiens, UniProt Q14524)",sodium current,,30 µM,,activation V1/2,-48.9 ± 3.6 mV
CC[n+]1c(-c2ccccc2)c2cc(N)ccc2c2ccc(N)cc21,"T1, DNA junction",fluorescence enhancement,,"20 °C, Mg2+ 12.5 mM, ethidium displacement",,binding,binds
CCC1(O)CCCN(C(=O)c2ccc(-c3ccc(F)c(NC(=O)CCl)c3)cc2)C1 (stereo not drawn),"DNA dC->dU-editing enzyme APOBEC-3A (Homo sapiens, UniProt P31941)","covalent adduct, intact protein MS",,"1 h, 20-fold excess, 500 µM",,unmodified protein,0%
N#C/C(=C\c1ccc(O)c(O)c1)C(N)=S,"TGM2 (Homo sapiens, UniProt P21980)","enzyme activity, inhibitor",,"concentration not given, reversibility, without calcium",,inhibition after dialysis,> 90%
c1coc(-c2n[nH]cc2-c2ccnc3ccccc23)c1,"Actin-regulating kinase PRK1 (PRK1, Candida albicans, UniProt Q5A961)","kinase binding, MIB/MS competition",Candida albicans lysate,10 µM,"reference: DMSO, negative = stronger binding",log2 fold change,-0.01
